Measurements pooled from the literature.
Every numbered part comes from another study and shows a few of its results, in no order.

Set 1 — technique: RNA Bind-n-Seq; form: RNA; sample: in vitro; concentration: 365 nM; relative to: no-protein control; reading: higher = stronger binding
Target: RNA binding protein fox-1 homolog 2, RRM domain, GST-SBP tag (RBFOX2, Homo sapiens, UniProt O43251-10, residues 100-194)
Notes: natural RNA segment, single round, ends assumed
Constant ends, left off below: GGGAGUUCUACAGUCCGACGAUC … UGGAAUUCUCGGGUGCCAA
Construct (chain): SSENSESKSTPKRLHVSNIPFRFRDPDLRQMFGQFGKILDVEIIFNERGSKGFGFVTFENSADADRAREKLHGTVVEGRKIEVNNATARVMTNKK
`UGUAAAUAGAAUUGCAACUGUCAGGUUUUGUGUUCUUGUUUUCCUUUAGUUGGGUUUAUUUCCAGGUCACAGAAUUGCUGUUAACACUAGAAAACACACUUCCUGCACCA` — result for “RBNS enrichment (R)”: 0.994.
Under “RBNS enrichment (R)”, `CCUACAUCAAUUAGUUAUUGGACUUCACAAAGAUUUGCCGCUGUGGAUCAAACAGGACCACCUCCCUCUGCGUCAGCCAUUUAAAAUUGGGGGAGGGAAGAGAUCCAGUG` is recorded as 0.398.
For `AGCAAUAGGAGUCAAGUUACUGGUGCCACAGAUCUGGAGGUAUGAUAGGUCAGGGGCUAGGUGUUGAACUUAGUUAAUGGAAGACUGAGAGCAGAACAGGUUUGUCAUCU`, “RBNS enrichment (R)” read 2.18.
`GUUUCCCACCUGACUCUACUAUACUCUUCCUGAUCACCAUGUGGCCUAAGAAUAUAUACUAUGGAGUCUAUGGACCACUGUAGAGAAGUUUUUAGUCUAGCCUGUUUGAU`: “RBNS enrichment (R)” 0.372.
`CCAGGACCACAGCUCUGUUCCUUCGGCCUCUGGUCCUCUCUGGUCCCCUCCUGGGUUUCUUACGUAGUUGAUUUUUCCUCUUUAGUCUCCCCCGACCUGCGCCCAGCCCC` — result for “RBNS enrichment (R)”: 0.416.
`AGAGCCACACCCAUGCCAUUACUGUAACAUUCCAACAUCUCCAUCUGACCUGACCUCCAUAUCUUCUCUUGCCAGCCUUUCCCUAUGCUCCCUCAAAUAUGUAUCUGAUG`: “RBNS enrichment (R)” 1.39.
`GUGCUGUCCUGACCACAGAGUCUCCAGAACUGAGGACAUAAUUGCUCCUGUAUUUCUGUGUUCCUCGGCCCUCUUGUCUGCCCAUUUCGUGUCCAGAGAGGGACAGGGUC` — result for “RBNS enrichment (R)”: 0.276.
`AGUCAAGUGAUGACACGACACACUUGAAACCCUGGCAAGUGGCUGCAAGGUGAGGAUUGGACUCGUGGGUGCCAGGAUCGGCUGGAGGACCUCCUGCCAAAGAGAGCUUU` — result for “RBNS enrichment (R)”: 0.602.
For `UGCUGAAAAAUGUGUUCUAAUGCAACACAAAAACAUGAAGUGACUGCCCAGAGGUAGAGUUAGUGUUUAGGUGGAAAGGGAGAUGACAGCUUUCCAAAGAAGGACCUAAA`, “RBNS enrichment (R)” read 0.972.
For `UGCUGGGCCUCCGCCUUCUUUUCUACGUGAAAUCAGUGAGGUGAGACUUCCCAGACCCCGGAGGCGUGGAGGAGAGGAGACUGUUUGAUGUGGUACAGGGGCAGUCAGUG`, “RBNS enrichment (R)” read 0.733.
`GGGACUUCAUCACUGAGUACUGUGACAGUAUGUGUCAUCUCUGGGCCAAAGGACAAGCCAUUGAUCCCAAAGCCUCGUAUGCCCACCAGGGCCCCUGGUGCCACUGCGUA`: “RBNS enrichment (R)” 0.457.
Under “RBNS enrichment (R)”, `GUCAGUUAAGUGACGGAUUCUGUUGUGGUUUGAAUGCAGUACCAGUGUUCUCUUCGAGCAAAGUAGACCUGGGUCACUGUAGGCAUAGGACUUGGAUUGCUUCAGAUGGU` is recorded as 0.441.

Set 2 — technique: RNA Bind-n-Seq; form: RNA; sample: in vitro; concentration: 1 µM; notes: whole 134-nt RNA, ends assumed; with: 150 mM KCl; relative to: input library; reading: higher = stronger binding
Target: Ras GTPase-activating protein-binding protein 1, C-terminal RGG region (G3BP1, Homo sapiens, UniProt Q13283)
Sequence of UniProt Q13283 (whole entry, looked up): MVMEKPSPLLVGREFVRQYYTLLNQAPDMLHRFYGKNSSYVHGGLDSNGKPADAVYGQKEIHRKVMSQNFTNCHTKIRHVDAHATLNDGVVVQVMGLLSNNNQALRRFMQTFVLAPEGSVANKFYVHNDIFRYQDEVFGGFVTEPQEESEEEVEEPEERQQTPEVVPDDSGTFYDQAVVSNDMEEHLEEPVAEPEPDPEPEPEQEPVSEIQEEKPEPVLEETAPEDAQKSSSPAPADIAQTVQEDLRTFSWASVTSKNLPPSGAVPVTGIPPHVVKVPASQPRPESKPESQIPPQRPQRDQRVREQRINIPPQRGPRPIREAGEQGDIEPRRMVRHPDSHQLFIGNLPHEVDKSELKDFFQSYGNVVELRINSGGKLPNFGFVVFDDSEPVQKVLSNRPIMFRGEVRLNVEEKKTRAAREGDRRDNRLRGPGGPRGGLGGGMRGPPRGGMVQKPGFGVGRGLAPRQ
Constant ends, left off below: GGGAGUUCUACAGUCCGACGAUC … UGGAAUUCUCGGGUGUCAAGG
`UUGCCCUGGUGGCAUGCGGGGAGGAAGAGGUGGCCUCAUGGAUCGUGGUGGUCCCGGUGGAAUGUUCAGAGGUGGCCGUGGUGGAGACAG` gave a log2 enrichment of 2.29.
For `AAGUCCUGUGCUACACAUCGUAUGUACCGAAUCGGGAAAGGGAAAGGGUUUUUGGGAAAGUAUUAUGUUACGCCGUUCGGAUCUGCACUU`, the log2 enrichment was 0.878.
With `CUCAAGUCCUGUGCUACACAUCGUAUGUACCGAAUCGGGGCCGGGCCGGCCGGGAAAGUAUUAUGUUACGCCGUUCGGAUCUGCACUUCC` the log2 enrichment was -1.04.
For `ACCAUGCAGGUGGGCAUCUUUGGGAAGUGGGGAAAGGGGGGGAUAGGGAGGGGGGUAACACUUUGGGAACAGGUGGUCCCAGGUCGUUUC`, the log2 enrichment was -0.707.
The log2 enrichment of `UAACUUUAGAGGAGGCUCUGAUGGAUAUGGCAGUGGACGUGGAUUUGGGGAUGGCUAUAAUGGGUAUGGAGGAGGACCUGGAGGUGGCAA` is reported as -1.36.
The log2 enrichment of `GUCCUGUGCUACACAUCGUAUGUACCGAAUCGGGCCCCCGGGGCCCCCGGGGCCCCCGGAAAGUAUUAUGUUACGCCGUUCGGAUCUGCA` is reported as -1.69.
`AAGUCCUGUGCUACACAUCGUAUGUACCGAAUCGGGGUUUUGGGUUUUGGUUUUGGAAAGUAUUAUGUUACGCCGUUCGGAUCUGCACUU` gave a log2 enrichment of -1.52.
With `CCUGUGCUACACAUCGUAUGUACCGAAUCGGGAAAAAAGGAAAAAAGGGGAAAAAAGGGGAAAGUAUUAUGUUACGCCGUUCGGAUCUGC` the log2 enrichment was -1.68.
`CAAGUCCUGUGCUACACAUCGUAUGUACCGAAUCGGUGGAAAAAAAGGAAAAAGGAAAGUAUUAUGUUACGCCGUUCGGAUCUGCACUUC` has a log2 enrichment of -1.58.
For `AGUCCUGUGCUACACAUCGUAUGUACCGAAUCGGGUUUUGGGUUUUGGGGUUUUGGGGAAAGUAUUAUGUUACGCCGUUCGGAUCUGCAC`, the log2 enrichment was 1.2.
The log2 enrichment of `CAAGUCCUGUGCUACACAUCGUAUGUACCGAAUCAAACCCAAAUUUAAACCCAAAAAAGUAUUAUGUUACGCCGUUCGGAUCUGCACUUC` is reported as -0.84.
For `UCCUGUGCUACACAUCGUAUGUACCGAAUCGGGAAAAAAAGGGAAAAAGGGUUUUUGGGAAAGUAUUAUGUUACGCCGUUCGGAUCUGCA`, the log2 enrichment was -0.348.
For `UAACUUUAGAGGAGGAUCUGAUGGAUAUGGCAGUGGACGUGGAUUUGGGGAUGGCUAUAAUGGGUAUGGAGGAGGACCUGGAGGCGGCAA`, the log2 enrichment was -0.804.
The log2 enrichment of `CACAGACAACACGCACCCACACAGACACAGAGGGAAGGGGUUGGGAUGGGAAAAGGGUGCACAGCAGGGCGGGGUAGGACCCCAGCCCCU` is reported as -0.228.

Set 3 — technique: protein binding microarray; form: double-stranded DNA, one strand shown; sample: in vitro; concentration: not given; relative to: not given; reading: higher = stronger binding
Target: Histone acetyltransferase KAT6A, winged helix 2, GST fusion (KAT6A, Homo sapiens, UniProt Q92794, residues 85-181)
Notes: 8-mer, flanks averaged, mean of 2 arrays, mostly near background
Construct (chain): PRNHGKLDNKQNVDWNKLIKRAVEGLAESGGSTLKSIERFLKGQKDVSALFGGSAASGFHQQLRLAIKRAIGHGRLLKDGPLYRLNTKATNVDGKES
`ATTTTATG` has an E-score of 0.0539.
The E-score of `CATACCAA` is reported as -0.0491.
For `CTCTGAGA`, the E-score was -0.139.
`CGTACAGA` has an E-score of -0.11.
The E-score of `GCCCCGGC` is reported as 0.165.
With `CCTGAACA` the E-score was -0.0605.
`GAGGTCAA` has an E-score of -0.0251.
`ACAATGGA` gave an E-score of 0.052.
`AGTTTGAT` has an E-score of 0.0455.
`ACTCTCAA` gave an E-score of -0.0626.
With `CGAAACGA` the E-score was 0.0262.
`AACCAGAA` has an E-score of -0.033.
For `CGATGAGA`, the E-score was -0.0194.
With `AGTTGAAC` the E-score was -0.0788.
`GGTTACAC` gave an E-score of -0.147.
The E-score of `CCTCCTCA` is reported as -0.00107.
The E-score of `CAATCAAG` is reported as 0.105.
With `ACGGCTTC` the E-score was 0.0321.
With `TCACGCGA` the E-score was -0.0413.
With `AAAAGCGG` the E-score was 0.0594.
`GTTATCAA` has an E-score of -0.0112.
For `ATAACATG`, the E-score was -0.126.
`CCCCGAAC` gave an E-score of 0.0767.
With `CCTTTCGC` the E-score was 0.0155.
With `ATGGTTAC` the E-score was -0.0659.

Set 4 — technique: protein-binding microarray; form: double-stranded DNA, one strand shown; sample: in vitro; concentration: 2540 nM top; notes: 60-bp whole probe; with: salmon DNA 0.4 mg/ml; relative to: random background probes; reading: higher = stronger binding; constant ends, left off below: GCCTAGCAC … GTCTTGATTCGCTTGACGCTGCTG
Target: Interferon regulatory factor 3, full length, phosphomimetic (IRF3, Homo sapiens, UniProt Q14653, residues 1-427, S386D/S396D/S398D/S402D/T404D/S405D)
Residues (chain): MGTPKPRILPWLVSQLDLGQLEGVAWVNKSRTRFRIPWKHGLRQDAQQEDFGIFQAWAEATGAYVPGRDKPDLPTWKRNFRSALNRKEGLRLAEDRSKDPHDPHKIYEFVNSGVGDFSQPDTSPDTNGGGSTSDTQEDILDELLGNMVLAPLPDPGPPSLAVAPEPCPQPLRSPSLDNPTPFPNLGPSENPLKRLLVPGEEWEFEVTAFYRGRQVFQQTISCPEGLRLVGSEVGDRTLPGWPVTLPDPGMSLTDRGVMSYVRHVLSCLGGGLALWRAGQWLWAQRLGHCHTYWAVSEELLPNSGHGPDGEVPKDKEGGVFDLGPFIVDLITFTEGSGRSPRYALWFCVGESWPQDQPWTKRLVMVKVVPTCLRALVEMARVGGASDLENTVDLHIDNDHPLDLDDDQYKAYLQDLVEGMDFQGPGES
`GACGAACTGGGGACTCGAGACGTGCTA` — result for “fitted relative affinity”: -0.539 z-score.
For `TTTGGTCTCCTACTGCTTTAGTGCTAG`, “fitted relative affinity” read 1.15 z-score.
For `TACGGTATCGGGACTGGGGACGTGCTA`, “fitted relative affinity” read 1.4 z-score.
`TCTTTTATGGTATTTTTTTGGTGCTAG`: “fitted relative affinity” 0.743 z-score.
Under “fitted relative affinity”, `TTCGGTATCGGGACTGGGTTAGTGCTA` is recorded as 2.36 z-score.
`TCAAGTTTCTCTTTCCTACTGTGCTAG`: “fitted relative affinity” 6.19 z-score.
Under “fitted relative affinity”, `TTAGGTATCGACACTGGGTTTGTGCTA` is recorded as 0.0529 z-score.
`TTAGATATCGGGTATCGATTTGTGCTA` — result for “fitted relative affinity”: 0.839 z-score.
Under “fitted relative affinity”, `TCAGGACTGGGTCTCGGTTAGTGCTAG` is recorded as -0.555 z-score.
`TCACTGGTCACTCTCTGACTGTGCTAG`: “fitted relative affinity” -0.14 z-score.
`TAATTTTTTAGCTTCTCAATGTGCTAG`: “fitted relative affinity” 0.152 z-score.
`TTAGGTCTCCCTCTCCTTTAGTGCTAG` — result for “fitted relative affinity”: 2.42 z-score.
For `TTCGGACTGGACTATCGGTTAGTGCTA`, “fitted relative affinity” read -0.179 z-score.
Under “fitted relative affinity”, `TTAGTTATCGGGTTTCGATTAGTGCTA` is recorded as 2.46 z-score.
Under “fitted relative affinity”, `TTAGGTTCCGGATTCGGTTAGTGCTAG` is recorded as 5.06 z-score.
`TTAGGTATCGTACTGGGTTAGTGCTAG` — result for “fitted relative affinity”: 0.931 z-score.
For `TGACGGCTCACTCCGTTGGAGTGCTAG`, “fitted relative affinity” read -0.901 z-score.
`TCATCTTCTCCTCTAGGACTGTGCTAG` — result for “fitted relative affinity”: 1.13 z-score.

A few entries again (set 4):
`TCAAGTTTCTCTTTCCTACTGTGCTAG`: “fitted relative affinity” 6.19 z-score.
Under “fitted relative affinity”, `TTAGGTATCGACACTGGGTTTGTGCTA` is recorded as 0.0529 z-score.
`TTAGATATCGGGTATCGATTTGTGCTA` — result for “fitted relative affinity”: 0.839 z-score.
Under “fitted relative affinity”, `TCAGGACTGGGTCTCGGTTAGTGCTAG` is recorded as -0.555 z-score.
`TCACTGGTCACTCTCTGACTGTGCTAG`: “fitted relative affinity” -0.14 z-score.
`TAATTTTTTAGCTTCTCAATGTGCTAG`: “fitted relative affinity” 0.152 z-score.
`TTAGGTCTCCCTCTCCTTTAGTGCTAG` — result for “fitted relative affinity”: 2.42 z-score.
For `TTCGGACTGGACTATCGGTTAGTGCTA`, “fitted relative affinity” read -0.179 z-score.
Under “fitted relative affinity”, `TTAGTTATCGGGTTTCGATTAGTGCTA` is recorded as 2.46 z-score.
Under “fitted relative affinity”, `TTAGGTTCCGGATTCGGTTAGTGCTAG` is recorded as 5.06 z-score.
`TTAGGTATCGTACTGGGTTAGTGCTAG` — result for “fitted relative affinity”: 0.931 z-score.
